Measured values of several laboratories.
Each numbered part is a random draw from the data of one study; scales do not carry over between parts.

Series 1 — method: protein-binding microarray; form: double-stranded DNA, one strand shown; matrix: in vitro; tested at: 250 nM; setting: 60-bp whole probe; together with: salmon DNA 0.4 mg/ml; baseline: random background probes; direction: higher = stronger binding; endpoint: log fluorescence; constant ends, left off below: GCCTAGCAC … GTCTTGATTCGCTTGACGCTGCTG
Target: Interferon regulatory factor 7, full length, phosphomimetic (IRF7, Homo sapiens, UniProt Q92985, residues 1-503, S101K/S471D/S472D/S475D/S476D/S477D/S483D/S484D/S487D)
UniProt Q92985, sequence (whole entry, unmodified, looked up): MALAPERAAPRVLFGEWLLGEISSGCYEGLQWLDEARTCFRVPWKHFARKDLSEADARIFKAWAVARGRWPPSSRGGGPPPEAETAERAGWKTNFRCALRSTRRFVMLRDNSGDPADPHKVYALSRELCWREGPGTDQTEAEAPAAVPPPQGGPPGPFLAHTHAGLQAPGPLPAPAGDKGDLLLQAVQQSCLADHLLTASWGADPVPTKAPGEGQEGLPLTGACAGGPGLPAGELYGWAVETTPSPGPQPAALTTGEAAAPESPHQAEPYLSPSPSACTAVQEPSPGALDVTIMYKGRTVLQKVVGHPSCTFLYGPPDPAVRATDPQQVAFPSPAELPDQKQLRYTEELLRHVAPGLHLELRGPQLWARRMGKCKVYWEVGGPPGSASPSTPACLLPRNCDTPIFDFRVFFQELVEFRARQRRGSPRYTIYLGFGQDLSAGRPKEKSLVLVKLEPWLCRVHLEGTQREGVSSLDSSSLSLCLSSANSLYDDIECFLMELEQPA
GACGGTTCCCTTTTGCTGACGTGCTAG: 3.55 z-score
GACGGACAGGGGTATCGGGACGTGCTA: -0.684 z-score
TCAGAGTCCTGTTTGATACTGTGCTAG: 0.955 z-score
TTAGGTTTCGGTATCGGGTAGTGCTAG: 10.3 z-score
TTAGCACTGAGTTTCGATTAGTGCTAG: 7.16 z-score
TTAGTTATCGGGACTGGATTAGTGCTA: 0.347 z-score
TTAGAACTGGACACTGGGTTAGTGCTA: -0.467 z-score
TTTTTTTTTTTTTTTTACTTGTGCTAG: 0.463 z-score
AGCCGTCTCCACCTGGGCAAGTGCTAG: -0.999 z-score
TCACATCTGCAACATCTAACTGTGCTA: 0.128 z-score
CCTCGTCTCTATCAAAAATAGTGCTAG: 0.659 z-score
CTCCCTCTGTAAGTCAGCACGTGCTAG: 0.0342 z-score
GACGGTAGCGGGACTGGGGACGTGCTA: -0.87 z-score
TCACCTCTCCATACTTCACTGTGCTAG: 0.307 z-score
TTAGGTTTCCTCCTGCTTTAGTGCTAG: 1.13 z-score
GACGGTTCCCTGTTCCTGACGTGCTAG: 1.4 z-score

Series 2 — method: universal PBM; form: double-stranded DNA, one strand shown; matrix: in vitro; tested at: 600 nM; direction: higher = stronger binding; endpoint: E-score
Target: Sal-like protein 4, full length isoform A (SALL4, Homo sapiens, UniProt Q9UJQ4, residues 1-1053)
UniProt Q9UJQ4, sequence (whole entry, looked up): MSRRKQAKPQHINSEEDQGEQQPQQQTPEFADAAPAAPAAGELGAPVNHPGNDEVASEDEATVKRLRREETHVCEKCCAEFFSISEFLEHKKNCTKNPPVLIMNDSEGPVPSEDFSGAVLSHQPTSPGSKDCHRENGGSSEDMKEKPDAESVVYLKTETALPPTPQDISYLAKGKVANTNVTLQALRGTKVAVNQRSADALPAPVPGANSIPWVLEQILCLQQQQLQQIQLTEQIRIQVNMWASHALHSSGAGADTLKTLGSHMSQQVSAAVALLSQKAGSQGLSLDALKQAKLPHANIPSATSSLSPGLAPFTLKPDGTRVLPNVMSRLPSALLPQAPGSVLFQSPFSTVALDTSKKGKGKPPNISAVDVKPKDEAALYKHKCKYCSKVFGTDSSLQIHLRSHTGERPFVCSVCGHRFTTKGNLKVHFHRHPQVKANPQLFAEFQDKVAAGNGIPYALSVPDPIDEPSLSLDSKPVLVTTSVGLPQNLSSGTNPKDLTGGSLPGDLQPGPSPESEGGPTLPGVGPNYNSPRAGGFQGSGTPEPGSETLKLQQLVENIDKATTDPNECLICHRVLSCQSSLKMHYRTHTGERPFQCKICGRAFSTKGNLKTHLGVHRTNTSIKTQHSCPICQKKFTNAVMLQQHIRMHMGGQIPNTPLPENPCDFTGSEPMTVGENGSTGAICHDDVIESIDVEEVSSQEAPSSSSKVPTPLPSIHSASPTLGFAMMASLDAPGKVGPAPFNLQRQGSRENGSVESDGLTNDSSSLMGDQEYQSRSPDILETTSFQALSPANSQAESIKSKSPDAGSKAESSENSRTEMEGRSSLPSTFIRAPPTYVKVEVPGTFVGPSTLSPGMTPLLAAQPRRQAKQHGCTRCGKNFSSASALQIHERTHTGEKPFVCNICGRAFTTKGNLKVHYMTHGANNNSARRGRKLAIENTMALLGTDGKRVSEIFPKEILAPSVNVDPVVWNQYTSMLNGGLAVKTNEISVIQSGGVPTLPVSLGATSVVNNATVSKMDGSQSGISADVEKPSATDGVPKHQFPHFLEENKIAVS
Setting: 8-mer, flanks averaged, mean of replicates
CCGAAGTC: -0.111
GGCAGTTA: 0.0243
CGGAGATA: 0.0531
TAAGCAAA: 0.226
CGCCAACA: 0.0198
TACGCGCA: -0.0917
CCGAGGGA: -0.364
ACTGAGAA: -0.00597
ACTTTTTA: 0.29
AACACTCC: 0.0865
AACAACCT: -0.00361
ACTAGGCT: -0.0199
AGACGGTG: -0.222
AGTGATAT: 0.189

Series 3 — method: RNA Bind-n-Seq; form: RNA; matrix: in vitro; tested at: 200 nM; setting: whole 134-nt RNA, ends assumed; together with: 150 mM KCl; baseline: input library; direction: higher = stronger binding; endpoint: log2 enrichment
Target: Fragile X messenger ribonucleoprotein 1, C-terminal low-complexity region (Fmr1, Mus musculus, UniProt P35922)
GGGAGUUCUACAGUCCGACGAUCUGGCCUUGGUGGCAUGCGGGGAGGAAGAGGUGGCCUCAUGGAUCGUGGUGGUCCCGGUGGAAUGUUCAGAGGUGGCCGUGGUGGAGACAGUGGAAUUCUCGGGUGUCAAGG: 0.466
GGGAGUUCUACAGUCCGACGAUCUCAAGUCCUGUGCUACACAUCGUAUGUACCGAAUCGGGAAAGGGAGGGAAAGGGAAAGUAUUAUGUUACGCCGUUCGGAUCUGCACUUCCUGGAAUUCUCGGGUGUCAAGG: 0.895
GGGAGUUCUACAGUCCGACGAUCCAAGUCCUGUGCUACACAUCGUAUGUACCGAAUCGGGAGGGAGGGUUUUUUUGGGAAAGUAUUAUGUUACGCCGUUCGGAUCUGCACUUCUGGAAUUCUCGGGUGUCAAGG: 0.839
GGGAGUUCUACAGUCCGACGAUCCAGAACGAUCGAUACAGAAACCACGCUGCCGCCACCACACCAUCACCAUCGACAGAACAGUCCUUAAUCCAGAAACCUGAAAUGAAGGAAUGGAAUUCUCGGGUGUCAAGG: 0.596
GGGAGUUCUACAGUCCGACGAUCGUCCUGUGCUACACAUCGUAUGUACCGAAUCGGGGUUUUUUUGGGGAGGGGUUUGGGGAAAGUAUUAUGUUACGCCGUUCGGAUCUGCACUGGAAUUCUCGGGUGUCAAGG: 0.408
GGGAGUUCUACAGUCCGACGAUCUCCUGUGCUACACAUCGUAUGUACCGAAUCGGGGAAAGGGGUUUGGGGAAAAAAAGGGGAAAGUAUUAUGUUACGCCGUUCGGAUCUGCAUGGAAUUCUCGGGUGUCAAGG: 0.469
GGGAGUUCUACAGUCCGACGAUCUGGGAGGUGGAUUUUGUUUAUUUUUUUAGCUCAUUUCCAGGGGUGGGAAUUUUUUUUUAAUAUGUGUCAUCAAUAAAGUUGUUUUUGAAAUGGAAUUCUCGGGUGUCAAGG: 0.521
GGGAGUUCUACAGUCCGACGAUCGAACUUUAGAGGAGGAUCUGAUGGAUAUGGCAGUGGACGUGGAUUUGGGGAUGGCUAUAAUGGGUAUGGAGGAGGACCUGGAGGUGGCAAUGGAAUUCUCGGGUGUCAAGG: 0.324
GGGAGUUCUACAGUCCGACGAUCGCAGGAAGUAAAAACAAAUGGAAAUGCUUCGAAAAGUGGCAGGGGUGGGGGUUGCUAAGGAAAGGGUGGGAUGGGAGUGGGUAAAGAGUUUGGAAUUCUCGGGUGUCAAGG: 0.239

Series 4 — method: RNA Bind-n-Seq; form: RNA; matrix: in vitro; tested at: 100 nM; baseline: input RNA pool; direction: higher = stronger binding; endpoint: bound/input enrichment
Target: RING finger protein unkempt homolog, zinc fingers 1-6, SBP tag (UNK, Homo sapiens, UniProt Q9C0B0, residues 30-357)
UniProt Q9C0B0, sequence (30-357, looked up): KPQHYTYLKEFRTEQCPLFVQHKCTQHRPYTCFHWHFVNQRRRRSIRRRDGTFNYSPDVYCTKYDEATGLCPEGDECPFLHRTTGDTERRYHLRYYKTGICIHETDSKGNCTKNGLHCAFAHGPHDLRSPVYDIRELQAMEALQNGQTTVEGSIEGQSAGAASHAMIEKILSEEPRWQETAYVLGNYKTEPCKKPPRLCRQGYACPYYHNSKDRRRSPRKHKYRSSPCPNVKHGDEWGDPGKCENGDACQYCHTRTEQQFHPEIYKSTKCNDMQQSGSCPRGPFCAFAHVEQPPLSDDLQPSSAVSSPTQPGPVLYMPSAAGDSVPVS
Setting: RNA with constant flanks, vertebrate orthologous sites, ends assumed
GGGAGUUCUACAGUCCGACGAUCUUACAGUCAUUGAUGGACUCUAUUUUUUUAUUAUUACUUGGACCUUGGUCGUUUUUAUACUAGCAAAAUGUCUUGUUUUAAUUUGUGGUUUUUUUUUUUGGUGGGGGGGAGUGAACUUGCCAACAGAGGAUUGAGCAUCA: 2.73 ratio
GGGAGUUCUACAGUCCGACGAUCUCCUCAACUUGUUCUAGCUUGUGAUCCUUCAAAGUUGGGUCAGGCAUUAGUGCUAGAUACUAGAAAUUUUCAUUUCCCUGUUGUUAUUGAUCAGUGGGACAGGCAUUAAUUAAAAACAGACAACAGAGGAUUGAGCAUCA: 0.947 ratio
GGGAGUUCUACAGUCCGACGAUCCAAAUUCCCCAUUGUCACUGAGAACCACCAAAUCUGACUUUUACAUUUGGUCUCAGAAUUUAGGUUCCUGCCCUGUUGGGGUUUUUUUUUUUUUGUUUGUUUUUUUGUUUUUUUGUUUCGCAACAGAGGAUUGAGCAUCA: 1.93 ratio
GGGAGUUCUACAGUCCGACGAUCGGGACGCUUUGAUGUAAAAAUUGAAGUUAAGAGCUGAUCACAAGCACAAAUCUUUCUCACUAGCCAUUAAAAAGUUAAAAAACGAUACAAAAACAAAAAACCUACUAGUCUUGAACAAACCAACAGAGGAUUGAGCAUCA: 1.39 ratio
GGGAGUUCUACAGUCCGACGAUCUUAAUAGUAUGUGUUCUUUUUCAAGGGUAGUUUUGUGCUAGACUGUGUUAGAUUUAAAAAUUAACAAAUUGGUUUCCAUUUGUUGUGUUUCUUUCAUUAUUGAAAAUAAAUAUAUCUUUGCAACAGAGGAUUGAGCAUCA: 0.392 ratio

Series 5 — method: RNAcompete; form: RNA; matrix: in vitro; tested at: 20 nM; setting: 7-mer, probes averaged, single round; baseline: mean of 7-mers; direction: higher = stronger binding; endpoint: 7-mer Z-score
Target: PABPC1L2, full length, GST fusion (mouse, UniProt A0ABA7IW68)
Target sequence (chain): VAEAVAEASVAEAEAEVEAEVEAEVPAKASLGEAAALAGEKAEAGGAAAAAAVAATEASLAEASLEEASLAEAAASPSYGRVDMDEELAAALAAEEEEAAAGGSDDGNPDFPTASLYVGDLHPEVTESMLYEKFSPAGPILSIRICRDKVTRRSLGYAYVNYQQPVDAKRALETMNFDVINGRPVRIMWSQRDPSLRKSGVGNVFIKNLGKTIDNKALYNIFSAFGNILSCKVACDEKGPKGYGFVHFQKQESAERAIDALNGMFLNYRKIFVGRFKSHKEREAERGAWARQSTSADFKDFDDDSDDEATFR
GCAAUGU: -0.113
GGAUUCC: -0.157
CGCGUCG: -0.315
CACCUCU: -0.354
GAAGAAA: 1.36
AAGAAGA: 0.709
AACUGCU: -0.0554
UUCCGGC: -0.383
GCGCGAA: 0.00979
AAGGCCU: -0.0844
CGAUGUC: -0.206
GACGUAA: 0.0642
CGAAGCU: 0.0533

Series 6 — method: protein binding microarray; form: double-stranded DNA, one strand shown; matrix: in vitro; tested at: not given; baseline: not given; direction: higher = stronger binding; endpoint: E-score
Target: Histone acetyltransferase KAT6A, both winged helices, GST fusion (KAT6A, Homo sapiens, UniProt Q92794, residues 1-181)
Setting: 8-mer, flanks averaged, mean of 2 arrays, mostly near background
Residues (chain): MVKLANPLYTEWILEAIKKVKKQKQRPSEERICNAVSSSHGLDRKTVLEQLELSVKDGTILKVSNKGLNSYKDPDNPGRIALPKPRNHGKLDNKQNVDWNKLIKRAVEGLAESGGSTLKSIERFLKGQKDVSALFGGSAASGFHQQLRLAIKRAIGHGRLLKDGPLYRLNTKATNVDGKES
AACAGAAA: -0.12
AAAAACGA: -0.0182
ATAGGAAA: -0.0747
ATCCGCGA: 0.254
CGAAGAAG: -0.0877
AAGAGGAG: -0.142
CCGAGTAC: 0.137
GAGTCATC: -0.0993
CTTTCTAA: -0.0208
ATAAGTTA: -0.162
AGGTAGAA: -0.24
CTATGAAC: -0.0955
CGGCTCCC: 0.143
AGATACTG: -0.181
CAGAGCTC: -0.0507
AGAACAAC: 0.0198
GATGATAC: -0.0107

Repeated from above (series 1):
GACGGTTCCCTTTTGCTGACGTGCTAG: 3.55 z-score
GACGGACAGGGGTATCGGGACGTGCTA: -0.684 z-score
TCAGAGTCCTGTTTGATACTGTGCTAG: 0.955 z-score
TTAGGTTTCGGTATCGGGTAGTGCTAG: 10.3 z-score
TTAGCACTGAGTTTCGATTAGTGCTAG: 7.16 z-score
TTAGTTATCGGGACTGGATTAGTGCTA: 0.347 z-score
TTAGAACTGGACACTGGGTTAGTGCTA: -0.467 z-score
TTTTTTTTTTTTTTTTACTTGTGCTAG: 0.463 z-score
AGCCGTCTCCACCTGGGCAAGTGCTAG: -0.999 z-score
TCACATCTGCAACATCTAACTGTGCTA: 0.128 z-score
